Experimental data gathered from unrelated publications.
Each line is one published result; not all experiments were run side by side. Several values in a cell are separate wells, animals, samples, runs or records. ± marks the error that the study gave.
inhA: Enoyl-[acyl-carrier-protein] reductase [NADH] (inhA, Mycobacterium tuberculosis, UniProt P9WGR1)
ACHE: Acetylcholinesterase (ACHE, Homo sapiens, UniProt P22303)
OPRK1: Kappa-type opioid receptor (OPRK1, Homo sapiens, UniProt P41145)
Neuronal acetylcholine receptor; alpha3/beta2: Neuronal acetylcholine receptor; alpha3/beta2 (Rattus norvegicus, UniProt P04757+P12390)

By UniProt entry, the sequences of proteins in these tests, tags left out. Chains listed by the source or under a name are the forms on record and can include a tag or linker. Residues count along the entry.
UniProt P9WGR1, whole entry: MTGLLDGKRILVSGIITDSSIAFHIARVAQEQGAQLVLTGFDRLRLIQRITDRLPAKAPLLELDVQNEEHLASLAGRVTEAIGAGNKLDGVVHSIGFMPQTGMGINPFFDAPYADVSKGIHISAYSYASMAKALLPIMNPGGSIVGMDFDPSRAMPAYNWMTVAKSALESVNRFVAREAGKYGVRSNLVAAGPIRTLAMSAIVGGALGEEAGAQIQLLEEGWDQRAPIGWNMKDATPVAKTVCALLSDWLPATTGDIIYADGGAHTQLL
UniProt P22303, 32-614 limits assumed: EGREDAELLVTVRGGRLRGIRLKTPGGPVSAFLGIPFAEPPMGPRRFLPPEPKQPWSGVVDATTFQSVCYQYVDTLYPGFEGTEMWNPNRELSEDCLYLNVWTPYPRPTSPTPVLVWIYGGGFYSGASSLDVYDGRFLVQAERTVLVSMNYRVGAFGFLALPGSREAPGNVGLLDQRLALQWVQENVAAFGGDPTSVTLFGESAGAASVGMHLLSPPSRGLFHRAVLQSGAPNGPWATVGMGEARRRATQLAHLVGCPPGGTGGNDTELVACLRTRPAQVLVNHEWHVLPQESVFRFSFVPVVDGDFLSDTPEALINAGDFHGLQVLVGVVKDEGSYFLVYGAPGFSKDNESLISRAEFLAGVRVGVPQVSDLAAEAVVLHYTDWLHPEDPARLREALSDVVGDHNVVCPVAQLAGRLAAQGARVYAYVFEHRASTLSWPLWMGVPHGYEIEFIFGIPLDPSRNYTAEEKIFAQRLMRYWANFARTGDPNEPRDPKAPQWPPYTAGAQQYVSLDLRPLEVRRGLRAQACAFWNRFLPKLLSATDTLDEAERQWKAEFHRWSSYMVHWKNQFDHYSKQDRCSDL
UniProt P22303, whole entry, looked up: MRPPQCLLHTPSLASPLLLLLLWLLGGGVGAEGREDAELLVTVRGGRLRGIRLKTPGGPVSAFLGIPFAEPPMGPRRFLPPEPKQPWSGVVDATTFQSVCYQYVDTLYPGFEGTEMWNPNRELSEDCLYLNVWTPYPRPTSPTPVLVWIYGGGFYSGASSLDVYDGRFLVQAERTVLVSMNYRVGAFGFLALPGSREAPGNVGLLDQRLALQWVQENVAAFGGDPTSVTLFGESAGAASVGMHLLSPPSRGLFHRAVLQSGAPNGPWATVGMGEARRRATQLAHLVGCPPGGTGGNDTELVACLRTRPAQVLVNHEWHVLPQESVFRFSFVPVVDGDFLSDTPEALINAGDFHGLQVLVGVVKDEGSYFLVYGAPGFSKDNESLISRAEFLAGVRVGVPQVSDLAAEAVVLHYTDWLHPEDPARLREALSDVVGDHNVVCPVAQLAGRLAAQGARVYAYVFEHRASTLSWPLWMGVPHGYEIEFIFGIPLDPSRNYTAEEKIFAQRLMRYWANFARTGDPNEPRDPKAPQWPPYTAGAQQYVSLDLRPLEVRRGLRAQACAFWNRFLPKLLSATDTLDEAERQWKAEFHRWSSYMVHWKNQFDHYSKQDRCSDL
UniProt P41145, whole entry: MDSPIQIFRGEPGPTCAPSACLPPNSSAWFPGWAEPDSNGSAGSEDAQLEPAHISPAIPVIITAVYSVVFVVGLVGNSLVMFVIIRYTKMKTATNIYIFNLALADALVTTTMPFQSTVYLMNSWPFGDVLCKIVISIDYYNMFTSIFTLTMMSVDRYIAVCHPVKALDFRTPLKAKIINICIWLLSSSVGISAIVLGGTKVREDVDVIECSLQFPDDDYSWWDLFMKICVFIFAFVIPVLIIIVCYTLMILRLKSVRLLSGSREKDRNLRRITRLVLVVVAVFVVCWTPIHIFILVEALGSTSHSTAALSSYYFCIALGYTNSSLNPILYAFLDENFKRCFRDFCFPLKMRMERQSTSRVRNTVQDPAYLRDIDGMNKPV
UniProt P04757, 26-499 limits assumed: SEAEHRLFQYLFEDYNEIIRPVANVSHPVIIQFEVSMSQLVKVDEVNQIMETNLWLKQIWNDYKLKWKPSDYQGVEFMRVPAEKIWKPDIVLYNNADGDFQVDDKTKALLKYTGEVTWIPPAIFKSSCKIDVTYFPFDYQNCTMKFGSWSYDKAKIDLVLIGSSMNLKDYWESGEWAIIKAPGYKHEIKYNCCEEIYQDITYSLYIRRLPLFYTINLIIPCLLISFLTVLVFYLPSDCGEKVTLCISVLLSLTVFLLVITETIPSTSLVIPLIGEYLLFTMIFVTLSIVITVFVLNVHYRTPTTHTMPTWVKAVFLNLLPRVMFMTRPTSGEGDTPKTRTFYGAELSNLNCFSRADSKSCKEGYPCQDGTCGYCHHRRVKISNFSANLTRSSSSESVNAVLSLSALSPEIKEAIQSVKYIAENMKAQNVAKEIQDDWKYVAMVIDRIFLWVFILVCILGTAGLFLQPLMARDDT
UniProt P12390, 25-500 limits assumed: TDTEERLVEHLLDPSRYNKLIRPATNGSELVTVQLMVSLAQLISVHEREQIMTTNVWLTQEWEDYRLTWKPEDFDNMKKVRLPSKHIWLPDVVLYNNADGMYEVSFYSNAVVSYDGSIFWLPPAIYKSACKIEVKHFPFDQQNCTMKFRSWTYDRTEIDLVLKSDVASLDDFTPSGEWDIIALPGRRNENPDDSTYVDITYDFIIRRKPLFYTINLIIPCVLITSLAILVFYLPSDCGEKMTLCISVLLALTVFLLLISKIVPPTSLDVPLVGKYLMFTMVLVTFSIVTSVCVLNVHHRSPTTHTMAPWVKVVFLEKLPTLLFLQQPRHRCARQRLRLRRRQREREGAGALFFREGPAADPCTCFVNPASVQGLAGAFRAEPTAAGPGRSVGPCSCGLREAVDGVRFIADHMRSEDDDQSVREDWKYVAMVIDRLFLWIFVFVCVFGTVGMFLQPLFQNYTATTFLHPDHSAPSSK
UniProt P33535, whole entry: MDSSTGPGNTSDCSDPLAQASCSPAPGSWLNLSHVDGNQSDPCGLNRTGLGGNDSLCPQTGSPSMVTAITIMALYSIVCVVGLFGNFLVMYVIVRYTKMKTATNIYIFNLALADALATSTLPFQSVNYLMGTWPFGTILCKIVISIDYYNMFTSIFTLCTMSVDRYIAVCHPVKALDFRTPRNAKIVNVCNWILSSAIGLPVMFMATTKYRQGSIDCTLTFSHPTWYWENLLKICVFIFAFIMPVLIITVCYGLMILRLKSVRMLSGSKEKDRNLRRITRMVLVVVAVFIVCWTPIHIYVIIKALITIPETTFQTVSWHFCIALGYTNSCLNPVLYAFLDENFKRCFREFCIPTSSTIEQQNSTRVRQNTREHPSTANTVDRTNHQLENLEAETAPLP
UniProt P06276, 29-602 limits assumed: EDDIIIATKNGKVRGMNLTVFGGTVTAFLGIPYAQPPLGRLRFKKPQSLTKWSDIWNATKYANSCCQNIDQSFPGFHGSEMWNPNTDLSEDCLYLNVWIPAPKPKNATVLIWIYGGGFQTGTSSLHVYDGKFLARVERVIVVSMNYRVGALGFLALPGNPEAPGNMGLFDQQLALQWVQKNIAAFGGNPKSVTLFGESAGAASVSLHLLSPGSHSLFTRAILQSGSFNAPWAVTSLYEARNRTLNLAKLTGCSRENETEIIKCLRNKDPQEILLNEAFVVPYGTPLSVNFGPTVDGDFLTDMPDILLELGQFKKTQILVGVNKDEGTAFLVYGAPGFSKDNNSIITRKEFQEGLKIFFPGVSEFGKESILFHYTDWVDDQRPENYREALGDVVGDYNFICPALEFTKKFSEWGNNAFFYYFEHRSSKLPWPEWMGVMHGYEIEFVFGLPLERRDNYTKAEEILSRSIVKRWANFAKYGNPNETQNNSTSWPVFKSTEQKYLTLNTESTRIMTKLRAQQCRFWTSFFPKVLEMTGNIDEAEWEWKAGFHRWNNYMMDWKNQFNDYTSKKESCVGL
UniProt P08172, whole entry: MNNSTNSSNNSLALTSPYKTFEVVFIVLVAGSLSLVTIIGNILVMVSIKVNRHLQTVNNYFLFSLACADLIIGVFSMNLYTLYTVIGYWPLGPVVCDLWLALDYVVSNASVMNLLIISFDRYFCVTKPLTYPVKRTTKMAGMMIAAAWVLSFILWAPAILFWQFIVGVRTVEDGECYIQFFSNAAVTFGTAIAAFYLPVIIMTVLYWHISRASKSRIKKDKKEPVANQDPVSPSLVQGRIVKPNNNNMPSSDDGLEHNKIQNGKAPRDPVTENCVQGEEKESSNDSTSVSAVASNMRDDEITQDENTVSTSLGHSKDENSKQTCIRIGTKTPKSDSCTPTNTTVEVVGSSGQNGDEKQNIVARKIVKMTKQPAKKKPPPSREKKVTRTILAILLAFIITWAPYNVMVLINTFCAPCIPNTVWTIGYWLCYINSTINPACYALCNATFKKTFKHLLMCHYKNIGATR
UniProt P42866, whole entry: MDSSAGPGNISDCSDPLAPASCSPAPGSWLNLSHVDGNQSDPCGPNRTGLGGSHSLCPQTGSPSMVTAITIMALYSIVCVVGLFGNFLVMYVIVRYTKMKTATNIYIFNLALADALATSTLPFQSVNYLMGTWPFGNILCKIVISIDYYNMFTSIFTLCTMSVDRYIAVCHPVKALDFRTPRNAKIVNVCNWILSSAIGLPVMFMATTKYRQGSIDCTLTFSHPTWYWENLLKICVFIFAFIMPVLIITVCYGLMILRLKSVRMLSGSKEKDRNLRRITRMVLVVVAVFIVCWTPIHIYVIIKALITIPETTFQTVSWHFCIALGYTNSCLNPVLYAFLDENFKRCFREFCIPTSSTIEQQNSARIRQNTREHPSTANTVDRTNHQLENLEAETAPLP
UniProt Q9Y5X5, whole entry: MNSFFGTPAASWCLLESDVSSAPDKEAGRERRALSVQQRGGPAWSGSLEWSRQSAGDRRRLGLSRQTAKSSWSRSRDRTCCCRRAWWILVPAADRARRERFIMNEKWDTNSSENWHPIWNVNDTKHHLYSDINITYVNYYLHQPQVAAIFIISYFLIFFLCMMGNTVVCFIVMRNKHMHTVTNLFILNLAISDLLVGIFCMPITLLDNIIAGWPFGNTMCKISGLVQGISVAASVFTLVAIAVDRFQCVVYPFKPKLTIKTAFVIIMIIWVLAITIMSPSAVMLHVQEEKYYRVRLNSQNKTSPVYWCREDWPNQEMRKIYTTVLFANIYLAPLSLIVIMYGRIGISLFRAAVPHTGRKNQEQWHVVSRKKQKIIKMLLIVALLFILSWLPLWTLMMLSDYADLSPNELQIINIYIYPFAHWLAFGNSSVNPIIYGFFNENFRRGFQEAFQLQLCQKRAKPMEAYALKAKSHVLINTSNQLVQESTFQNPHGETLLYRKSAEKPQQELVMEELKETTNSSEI
UniProt Q8T632, 1-509: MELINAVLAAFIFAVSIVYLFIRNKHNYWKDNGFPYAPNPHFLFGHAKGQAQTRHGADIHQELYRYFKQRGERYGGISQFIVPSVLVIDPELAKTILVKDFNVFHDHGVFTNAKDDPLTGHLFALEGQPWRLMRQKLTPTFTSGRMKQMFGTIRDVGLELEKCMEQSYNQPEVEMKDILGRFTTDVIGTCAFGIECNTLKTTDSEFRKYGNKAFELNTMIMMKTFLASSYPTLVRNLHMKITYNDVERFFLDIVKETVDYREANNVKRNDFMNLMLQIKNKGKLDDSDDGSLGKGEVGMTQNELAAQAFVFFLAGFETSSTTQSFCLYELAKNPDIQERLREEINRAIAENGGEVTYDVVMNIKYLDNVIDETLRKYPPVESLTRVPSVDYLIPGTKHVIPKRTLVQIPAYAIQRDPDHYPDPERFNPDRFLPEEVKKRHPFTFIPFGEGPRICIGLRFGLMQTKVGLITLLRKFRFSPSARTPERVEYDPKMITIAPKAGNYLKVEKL
UniProt P36544, 23-502 limits assumed: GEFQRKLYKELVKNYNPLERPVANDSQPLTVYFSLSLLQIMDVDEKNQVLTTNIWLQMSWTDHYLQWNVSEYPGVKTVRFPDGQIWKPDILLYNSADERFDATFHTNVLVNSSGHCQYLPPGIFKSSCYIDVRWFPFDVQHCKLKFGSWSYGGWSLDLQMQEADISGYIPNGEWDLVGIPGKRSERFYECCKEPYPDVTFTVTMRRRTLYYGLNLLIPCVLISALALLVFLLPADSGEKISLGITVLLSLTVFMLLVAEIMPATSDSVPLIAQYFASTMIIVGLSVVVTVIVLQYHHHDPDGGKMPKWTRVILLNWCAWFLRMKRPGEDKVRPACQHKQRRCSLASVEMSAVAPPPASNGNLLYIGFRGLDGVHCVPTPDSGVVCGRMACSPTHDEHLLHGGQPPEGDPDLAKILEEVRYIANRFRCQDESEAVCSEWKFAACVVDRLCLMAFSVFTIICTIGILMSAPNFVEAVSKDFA
UniProt P37231, 176-477 with tags or gaps isoform 2 limits assumed: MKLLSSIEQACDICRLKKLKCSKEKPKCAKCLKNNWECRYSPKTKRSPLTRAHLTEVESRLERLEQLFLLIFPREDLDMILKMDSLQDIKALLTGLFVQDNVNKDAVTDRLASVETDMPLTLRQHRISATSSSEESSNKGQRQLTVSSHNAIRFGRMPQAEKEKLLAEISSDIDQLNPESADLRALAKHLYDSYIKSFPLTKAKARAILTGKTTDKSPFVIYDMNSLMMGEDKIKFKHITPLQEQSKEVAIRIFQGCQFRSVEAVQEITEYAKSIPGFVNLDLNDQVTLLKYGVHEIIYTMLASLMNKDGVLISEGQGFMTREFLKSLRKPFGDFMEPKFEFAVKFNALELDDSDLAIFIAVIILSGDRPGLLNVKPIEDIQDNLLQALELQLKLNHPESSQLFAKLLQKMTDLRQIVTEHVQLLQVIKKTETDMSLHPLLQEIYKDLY

| Substance | target | test | system | setting | scale | endpoint | result |
| --- | --- | --- | --- | --- | --- | --- | --- |
| CC1(C)CCC(Cc2cc(O)c(-c3ccccc3)c(=O)[nH]2)CC1 | inhA | thermal shift | – | – | – | ΔTm | 1.3 °C |
| CO[C@]12CC[C@@]3(C[C@@H]1[C@](C)(O)c1ccc(C)s1)[C@H]1Cc4ccc(O)c5c4[C@@]3(CCN1CC1CC1)[C@H]2O5 | Oprm1 (Rattus norvegicus, UniProt P33535) | G protein activation, agonist | – | 10 µM | relative to: DAMGO | stimulation | 17 ± 3% |
| COc1ccc(CCCCC(=O)C(F)(F)C(F)(F)F)cc1 | PLA2G6 (Homo sapiens, UniProt O60733) | enzyme activity, inhibitor, HPLC-MS/MS lipidomics | – | – | relative to: IC50 GIVA cPLA2 over IC50 PLA2G6 | selectivity ratio | ~154 |
| CCOc1ccc(N)cc1CN(CC)CC | ACHE | enzyme activity, inhibitor | – | 1000 µM | – | inhibition | 5% |
| CCCc1nc2c(NP(=O)(OCC)OCC)nc3ccccc3c2s1 | TLR7 (Homo sapiens, UniProt Q9NYK1) | reporter gene, agonist, item: NF-κB | HEK-Blue TLR7 cells | inactive means above 100 µM | – | EC50 | inactive |
| O=C(O)c1ccccc1[As](=O)(O)O | SMPD1 (Homo sapiens, UniProt P17405) | enzyme activity | – | with: sphingomyelin substrate | relative to: pH 6.5 over pH 5.0 | activity ratio | 5.6 fold |
| CN(C(=O)Cc1ccc(Cl)c(Cl)c1)[C@H](CN1CCCC1)c1ccccc1 | OPRK1 | agonist | – | – | relative to: G protein over internalization, vs dynorphin A, positive means G protein bias | log bias factor | 0.75 |
| CO[C@]12CC[C@@]3(C[C@@H]1[C@](C)(O)c1ccccc1)[C@H]1Cc4ccc(O)c5c4[C@@]3(CCN1CC1CC1)[C@H]2O5 | Oprm1 (Rattus norvegicus, UniProt P33535) | G protein activation, agonist | – | 10 µM | relative to: DAMGO | stimulation | 6 ± 1% |
| CC(C[N+](C)(C)C)OC(N)=O (centres unmarked) | Muscarinic acetylcholine receptor (Xenopus laevis, UniProt A0A8J0U760) | binding, [3H]QNB competition | Xenopus laevis heart homogenate | – | – | Hill coefficient | 0.53 |
| CCCC[C@@H]1NC(=O)[C@H](CCC(=O)O)NC(=O)[C@@H]2CCCN2C(=O)[C@H](Cc2c[nH]cn2)NC(=O)[C@H](CC(N)=O)NC(=O)[C@H](C(C)C)NC(=O)[C@H](CO)NC(=O)[C@@H]2CSSC[C@H](NC(=O)CN)C(=O)N[C@@H](CSSC[C@@H](C(N)=O)NC1=O)C(=O)N[C@@H](CO)C(=O)N[C@@H](Cc1c[nH]cn1)C(=O)N1CCC[C@H]1C(=O)N[C@@H](C)C(=O)N2 | Neuronal acetylcholine receptor; alpha3/beta2 | – | – | – | relative to: IC50 α6/α3β2β3 over α3β2 | selectivity ratio | 0.6 |
| CO[C@]12CC[C@@]3(C[C@@H]1[C@](C)(O)c1ccc(F)cc1)[C@H]1Cc4ccc(O)c5c4[C@@]3(CCN1CC1CC1)[C@H]2O5 | Oprm1 (Rattus norvegicus, UniProt P33535) | G protein activation, agonist | – | 10 µM | relative to: DAMGO | stimulation | 18 ± 4% |
| pralidoxime iodide | Cholinesterase, DFP-inhibited (BCHE, Homo sapiens, UniProt P06276) | reactivator | – | – | relative to: kr over kr acetylcholinesterase (human) | reactivation rate ratio | 10 fold |
| methoxymethyl salvinorin B | OPRK1 | G protein activation, agonist | – | concentration not given | relative to: dynorphin A | log intrinsic relative activity | 0.45 ± 0.1 |
| C[As+](C)(C)CCO | betP (Corynebacterium glutamicum, UniProt P54582, G153D) | transport current, substrate, SSM electrophysiology | Corynebacterium glutamicum, proteoliposomes | pH 7.5, 22 °C, with: 500 mM NaCl | – | Km | 523 ± 70 µM |
| CC(C)[C@H]1CC[C@@H](N2CCC(n3c(CO)cc4ccccc43)CC2)CC1 | CHRM2 (Homo sapiens, UniProt P08172) | radioligand binding | – | 10 µM | – | inhibition | 85% |
| Cc1c(-c2ccc(-c3ccc(OC(F)(F)F)cc3)nc2)[nH]c2ccccc2c1=O | cydA, with CydB subunit (Mycobacterium tuberculosis, UniProt L7N662) | inhibitor | – | 110 nM | – | specific activity | 6 ± 0.5 µmol/min/mg |
| nociceptin | Nociceptin receptor (OPRL1, Homo sapiens, UniProt P41146) | receptor phosphorylation, agonist, Western blot, item: Ser346 phosphorylation | HEK293 | 10 µM | – | time to phosphorylation | ≤ 20 s |
| ethoxymethyl salvinorin B | OPRK1 | G protein activation, agonist | – | concentration not given | relative to: dynorphin A | log intrinsic relative activity | 0.58 ± 0.1 |
| naltrexamine Alexa 594 | Oprm1 (Mus musculus, UniProt P42866) | receptor binding, live-cell binding kinetics | – | 300 nM, 90 s, with: Met-enkephalin 30 µM for 2 h | relative to: no pretreatment | unbinding rate | no effect |
| CCCC(=O)SCC[N+](C)(C)C | Cholinesterase (BCHE, Homo sapiens, UniProt P06276) | substrate | – | – | – | substrate inhibition constant (Kss) | 0.7 ± 0.1 mM |
| N=C(N)NCC(=O)NCC1(Cc2ccccc2)CCN(Cc2ccccc2)CC1 | Neuropeptide FF receptor 2 (Homo sapiens, UniProt Q9Y5X5) | – | – | – | relative to: mu and kappa opioid over NPFF2 | selectivity ratio | 2 fold |

| Substance | target | test | system | setting | scale | endpoint | result |
| --- | --- | --- | --- | --- | --- | --- | --- |
| CCOc1ccc2c(c1)Oc1cc(OCC)ccc1C21OC(=O)c2ccccc21 | cyp6p3 (Anopheles gambiae, UniProt Q8T632) | substrate | – | single plasmid expression | – | Km | 0.7 ± 0.1 µM |
| CC#C/C(=N\OC[C@H]1COCCN1)c1ccc2ncnc(Nc3ccc(OCc4cccc(F)c4)c(Cl)c3)c2c1 | DAPK1 (Homo sapiens, UniProt P53355) | kinase activity | – | 10 µM | – | inhibition | -0.2% |
| CN(C(=O)Cc1ccc(Cl)c(Cl)c1)C1CCC2(CCCO2)CC1N1CCCC1 (centres unmarked) | OPRK1 | agonist | – | – | relative to: G protein over internalization, vs dynorphin A, positive means G protein bias | log bias factor | 0.26 ± 0.21 |
| CO[C@]12CC[C@@]3(C[C@@H]1[C@](C)(O)c1cccc(F)c1)[C@H]1Cc4ccc(O)c5c4[C@@]3(CCN1CC1CC1)[C@H]2O5 | Oprm1 (Rattus norvegicus, UniProt P33535) | G protein activation, agonist | – | 10 µM | relative to: DAMGO | stimulation | 22 ± 2% |
| CC(=O)SCC[N+](C)(C)C | ACHE | substrate | – | – | – | substrate inhibition constant (Kss) | 6.4 ± 1.1 mM |
| CO[C@]12CC[C@@]3(C[C@@H]1[C@@](C)(O)C(C)(C)C)[C@H]1Cc4c(Cl)cc(O)c5c4[C@@]3(CCN1CC1CC1)[C@H]2O5 | OPRD1 (Homo sapiens, UniProt P41143) | antagonist | CHO | concentration not given | – | antagonist activity | inhibited |
| CC(C)C[C@@H]1NC(=O)[C@H](CCC(=O)O)NC(=O)[C@@H]2CCCN2C(=O)[C@H](Cc2c[nH]cn2)NC(=O)[C@H](CCCCC(=O)O)NC(=O)[C@H](CC(C)C)NC(=O)[C@H](Cc2c[nH]cn2)NC(=O)[C@@H]2CSSC[C@H](NC(=O)CN)C(=O)N[C@@H](CSSC[C@@H](C(N)=O)NC1=O)C(=O)N[C@@H](CO)C(=O)N[C@@H](Cc1c[nH]cn1)C(=O)N1CCC[C@H]1C(=O)N[C@@H](C)C(=O)N2 | Neuronal acetylcholine receptor; alpha3/beta2 | – | – | – | relative to: IC50 α6/α3β2β3 over α3β2 | selectivity ratio | ~59 and 59 |
| CCC(=O)SCC[N+](C)(C)C | ACHE | substrate | – | – | – | substrate inhibition constant (Kss) | 4.7 ± 1.6 mM |
| O=c1[nH]c(CC2CCCCC2)cc(O)c1-c1ccccc1 | inhA | isothermal titration calorimetry | – | concentration not given, with: NADH | – | binding stoichiometry | 1.04 ± 0.02 |
| CC(C)C[C@@H]1NC(=O)[C@H](CCC(=O)O)NC(=O)[C@@H]2CCCN2C(=O)[C@H](Cc2c[nH]cn2)NC(=O)[C@H](CCC(=O)O)NC(=O)[C@H](CC(C)C)NC(=O)[C@H](Cc2c[nH]cn2)NC(=O)[C@@H]2CSSC[C@H](NC(=O)CN)C(=O)N[C@@H](CSSC[C@@H](C(N)=O)NC1=O)C(=O)N[C@@H](CO)C(=O)N[C@@H](Cc1c[nH]cn1)C(=O)N1CCC[C@H]1C(=O)N[C@@H](C)C(=O)N2 | Neuronal acetylcholine receptor; alpha3/beta2 | – | – | – | relative to: IC50 α6/α3β2β3 over α3β2 | selectivity ratio | 14 |
| U-69593 | OPRK1 | ERK1/2 phosphorylation, agonist, operational model | CHO expressing human KOR | unit not given | relative to: reference agonist | Δlog(τ/KA) | 0 |
| C[C@@H]1NC(=O)[C@H](CCCNC(=N)N)NC(=O)[C@H](CCCNC(=N)N)NC(=O)[C@H](Cc2c[nH]cn2)NC(=O)[C@H](CO)NC(=O)[C@@H]2CSSC[C@H](NC(=O)CN)C(=O)N[C@@H](CSSC[C@@H](C(N)=O)NC(=O)[C@H](CO)NC(=O)[C@H](CCCNC(=N)N)NC1=O)C(=O)N[C@@H](CO)C(=O)N[C@@H](Cc1c[nH]cn1)C(=O)N1CCC[C@H]1C(=O)N[C@@H](C)C(=O)N2 | CHRNA7 (Homo sapiens, UniProt P36544) | ion current, antagonist | Xenopus oocytes | 10 µM, 5 min, with: acetylcholine | relative to: control | remaining response | 46 ± 15% |
| CNC(=O)Oc1cccc2ccccc12 | Ace (Anopheles gambiae, UniProt Q869C3) | enzyme inhibition, inhibitor | – | – | – | k2 | 1.84 ± 0.37 min⁻¹ |
| CCCCOP(=O)(OCCCC)OCCCC | PPARG (Homo sapiens, UniProt P37231) | reporter gene, agonist | HEK293 | – | relative to: rosiglitazone maximum | EC20 | 13.3 µM |
| CN(C(=O)Cc1cccc2occc12)[C@H]1CC[C@@]2(CCCO2)C[C@@H]1N1CCCC1 | OPRK1 | agonist | – | human receptor | relative to: larger over smaller RAi, vs dynorphin A | bias factor | 4.2 |
| CO[C@]12CC[C@@]3(C[C@@H]1[C@](C)(O)c1ccc(Cl)cc1)[C@H]1Cc4ccc(O)c5c4[C@@]3(CCN1CC1CC1)[C@H]2O5 | Oprm1 (Rattus norvegicus, UniProt P33535) | G protein activation, agonist | – | 10 µM | relative to: DAMGO | stimulation | 16 ± 4% |
| O[As](O)O | Inositol transporter 4 (INT4, Arabidopsis thaliana, UniProt O23492) | arsenic uptake, substrate, ICP-MS | yeast expressing transporter | 30 min, 30 °C, with: 2 µg/mL myo-inositol | – | Km | 174 µM |
| CO[C@]12CC[C@@]3(C[C@@H]1[C@@](C)(O)c1ccccn1)[C@H]1Cc4ccc(O)c5c4[C@@]3(CCN1CC1CC1)[C@H]2O5 | Oprm1 (Rattus norvegicus, UniProt P33535) | G protein activation, agonist | – | 10 µM | relative to: DAMGO | stimulation | 1 ± 3% |
| Cc1csc(CCCNCc2cc(=O)c3cc(F)ccc3[nH]2)n1 | DRD2 (Homo sapiens, UniProt P14416) | – | – | 10 µM | – | binding | inactive |
| CCN1CCN(Cc2ccc(NC(=O)c3ccc(C)c(/C=C/c4cnc5[nH]ccc5c4OC)c3)cc2C(F)(F)F)CC1 | RPS6KA6 (Homo sapiens, UniProt Q9UK32) | inhibitor, cell-based kinome screen | – | 5 µM | relative to: vehicle | log2 fold change | 0.217 |

Excerpt of the above:
| Substance | target | test | system | setting | scale | endpoint | result |
| --- | --- | --- | --- | --- | --- | --- | --- |
| CCOc1ccc2c(c1)Oc1cc(OCC)ccc1C21OC(=O)c2ccccc21 | cyp6p3 (Anopheles gambiae, UniProt Q8T632) | substrate | – | single plasmid expression | – | Km | 0.7 ± 0.1 µM |
| CC#C/C(=N\OC[C@H]1COCCN1)c1ccc2ncnc(Nc3ccc(OCc4cccc(F)c4)c(Cl)c3)c2c1 | DAPK1 (Homo sapiens, UniProt P53355) | kinase activity | – | 10 µM | – | inhibition | -0.2% |
| CN(C(=O)Cc1ccc(Cl)c(Cl)c1)C1CCC2(CCCO2)CC1N1CCCC1 (centres unmarked) | OPRK1 | agonist | – | – | relative to: G protein over internalization, vs dynorphin A, positive means G protein bias | log bias factor | 0.26 ± 0.21 |
| CO[C@]12CC[C@@]3(C[C@@H]1[C@](C)(O)c1cccc(F)c1)[C@H]1Cc4ccc(O)c5c4[C@@]3(CCN1CC1CC1)[C@H]2O5 | Oprm1 (Rattus norvegicus, UniProt P33535) | G protein activation, agonist | – | 10 µM | relative to: DAMGO | stimulation | 22 ± 2% |
